Measurements pooled from the literature.
Parts stem from different laboratories: compare values within a part only.
Sequence of UniProt Q13882 (whole entry, looked up): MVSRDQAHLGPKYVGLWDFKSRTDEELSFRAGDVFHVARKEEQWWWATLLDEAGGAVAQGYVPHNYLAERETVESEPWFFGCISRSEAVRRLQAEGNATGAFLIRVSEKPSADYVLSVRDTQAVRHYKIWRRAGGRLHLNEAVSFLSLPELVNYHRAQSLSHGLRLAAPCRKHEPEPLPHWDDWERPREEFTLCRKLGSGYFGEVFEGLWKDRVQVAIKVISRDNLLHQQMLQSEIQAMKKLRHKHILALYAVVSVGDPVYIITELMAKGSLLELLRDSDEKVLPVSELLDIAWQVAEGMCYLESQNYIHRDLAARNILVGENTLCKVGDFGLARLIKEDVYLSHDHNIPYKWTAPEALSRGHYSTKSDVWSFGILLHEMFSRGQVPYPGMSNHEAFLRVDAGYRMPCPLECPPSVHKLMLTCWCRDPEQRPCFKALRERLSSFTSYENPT
Sequence of UniProt P0C264 (whole entry, looked up): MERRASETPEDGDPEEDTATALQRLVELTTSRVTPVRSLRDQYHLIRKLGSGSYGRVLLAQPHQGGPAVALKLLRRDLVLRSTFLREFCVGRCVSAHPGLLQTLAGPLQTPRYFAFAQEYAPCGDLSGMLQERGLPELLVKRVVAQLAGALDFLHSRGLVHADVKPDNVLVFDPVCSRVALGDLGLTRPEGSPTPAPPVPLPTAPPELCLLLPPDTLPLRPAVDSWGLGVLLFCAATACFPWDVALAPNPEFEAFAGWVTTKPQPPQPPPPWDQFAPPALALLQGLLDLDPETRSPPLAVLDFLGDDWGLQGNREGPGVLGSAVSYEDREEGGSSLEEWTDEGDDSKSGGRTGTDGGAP
Sequence of UniProt Q07912 (whole entry, looked up): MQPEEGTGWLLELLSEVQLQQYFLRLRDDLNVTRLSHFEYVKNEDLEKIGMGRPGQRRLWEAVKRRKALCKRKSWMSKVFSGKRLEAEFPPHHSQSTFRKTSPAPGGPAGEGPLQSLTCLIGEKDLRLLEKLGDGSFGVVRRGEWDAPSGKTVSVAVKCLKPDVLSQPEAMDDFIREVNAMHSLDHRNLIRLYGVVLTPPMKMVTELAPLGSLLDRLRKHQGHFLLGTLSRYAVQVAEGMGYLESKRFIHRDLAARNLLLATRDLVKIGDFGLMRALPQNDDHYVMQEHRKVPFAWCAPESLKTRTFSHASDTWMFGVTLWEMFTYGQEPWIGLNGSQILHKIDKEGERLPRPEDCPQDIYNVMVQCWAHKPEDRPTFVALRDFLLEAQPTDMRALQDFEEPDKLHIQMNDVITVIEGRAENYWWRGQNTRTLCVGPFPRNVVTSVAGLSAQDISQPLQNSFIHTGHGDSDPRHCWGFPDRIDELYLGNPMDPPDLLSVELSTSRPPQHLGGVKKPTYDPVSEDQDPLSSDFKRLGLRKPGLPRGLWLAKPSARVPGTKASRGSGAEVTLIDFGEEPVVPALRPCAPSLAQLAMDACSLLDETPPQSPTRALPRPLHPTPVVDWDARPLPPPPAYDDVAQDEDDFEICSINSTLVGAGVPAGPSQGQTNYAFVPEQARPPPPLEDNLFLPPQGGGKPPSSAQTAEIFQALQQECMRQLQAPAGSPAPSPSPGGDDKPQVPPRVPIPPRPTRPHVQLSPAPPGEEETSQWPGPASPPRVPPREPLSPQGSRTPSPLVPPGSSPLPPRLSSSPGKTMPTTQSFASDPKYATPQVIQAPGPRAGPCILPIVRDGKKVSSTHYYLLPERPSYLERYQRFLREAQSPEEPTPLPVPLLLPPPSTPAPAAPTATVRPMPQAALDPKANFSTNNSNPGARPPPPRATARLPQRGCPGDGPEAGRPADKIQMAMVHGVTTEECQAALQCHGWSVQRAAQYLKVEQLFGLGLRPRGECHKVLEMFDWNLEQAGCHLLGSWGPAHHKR
Sequence of UniProt Q96PY6 (whole entry, looked up): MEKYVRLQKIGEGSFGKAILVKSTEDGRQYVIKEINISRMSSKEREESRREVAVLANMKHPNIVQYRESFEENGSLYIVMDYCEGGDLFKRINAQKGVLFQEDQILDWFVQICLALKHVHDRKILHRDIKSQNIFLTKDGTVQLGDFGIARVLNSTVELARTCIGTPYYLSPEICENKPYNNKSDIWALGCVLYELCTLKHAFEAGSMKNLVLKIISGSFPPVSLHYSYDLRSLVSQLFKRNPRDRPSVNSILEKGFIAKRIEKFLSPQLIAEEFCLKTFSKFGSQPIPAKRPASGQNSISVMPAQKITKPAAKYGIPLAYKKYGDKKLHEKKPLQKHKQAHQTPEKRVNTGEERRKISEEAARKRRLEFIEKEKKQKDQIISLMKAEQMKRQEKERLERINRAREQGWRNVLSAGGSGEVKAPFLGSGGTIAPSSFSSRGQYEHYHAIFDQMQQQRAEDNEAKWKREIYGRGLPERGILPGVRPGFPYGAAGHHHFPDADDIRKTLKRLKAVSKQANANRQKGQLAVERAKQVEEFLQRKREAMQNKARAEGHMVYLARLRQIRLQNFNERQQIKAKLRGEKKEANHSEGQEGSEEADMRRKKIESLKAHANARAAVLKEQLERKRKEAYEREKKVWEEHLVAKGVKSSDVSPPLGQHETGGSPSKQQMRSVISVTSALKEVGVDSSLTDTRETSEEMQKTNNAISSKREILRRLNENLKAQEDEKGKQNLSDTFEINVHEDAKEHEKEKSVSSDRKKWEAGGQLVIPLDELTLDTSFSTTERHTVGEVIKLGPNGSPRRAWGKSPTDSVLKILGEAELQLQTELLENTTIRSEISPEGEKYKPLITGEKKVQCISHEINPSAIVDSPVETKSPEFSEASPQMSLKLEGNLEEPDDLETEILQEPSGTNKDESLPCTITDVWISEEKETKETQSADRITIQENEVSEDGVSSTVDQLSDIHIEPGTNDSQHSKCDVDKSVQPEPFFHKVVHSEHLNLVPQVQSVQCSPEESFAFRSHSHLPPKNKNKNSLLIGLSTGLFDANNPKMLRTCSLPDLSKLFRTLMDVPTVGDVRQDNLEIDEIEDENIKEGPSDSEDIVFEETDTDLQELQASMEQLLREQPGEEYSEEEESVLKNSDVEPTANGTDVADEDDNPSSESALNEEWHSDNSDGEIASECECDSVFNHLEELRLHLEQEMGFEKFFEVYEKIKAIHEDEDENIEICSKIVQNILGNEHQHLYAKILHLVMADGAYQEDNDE
Sequence of UniProt Q00526 (whole entry, looked up): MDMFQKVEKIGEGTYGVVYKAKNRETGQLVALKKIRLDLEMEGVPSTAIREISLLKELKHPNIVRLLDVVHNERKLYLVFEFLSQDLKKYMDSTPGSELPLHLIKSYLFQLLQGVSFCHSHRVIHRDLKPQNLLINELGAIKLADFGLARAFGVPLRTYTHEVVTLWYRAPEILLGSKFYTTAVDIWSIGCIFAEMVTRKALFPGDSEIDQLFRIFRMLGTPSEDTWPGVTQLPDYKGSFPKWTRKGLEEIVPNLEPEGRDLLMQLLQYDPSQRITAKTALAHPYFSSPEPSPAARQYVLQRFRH

Block 1
Structure (SMILES): COCC1CC2C(CCC3C(O)CCC32)c2ccc(O)cc21 (stereo not drawn)
For SK-OV-3; microarray, refers to: PIF1; 100 µM; relative to: untreated: “log2 fold change” read -0.0328.
The “log2 fold change” was 0 (SK-OV-3; DNA microarray, refers to: CCL8; 25 µM; relative to: untreated control).
PANC-1; DNA microarray, refers to: ADAMTS14 mRNA; 100 µM; relative to: control — “log2 fold change”: 2.78.
PANC-1; microarray, refers to: CDC25B; 25 µM; relative to: untreated — “log2 fold change”: -0.0899.
It gave 8.07 for “log2 fold change” (A549; microarray, refers to: CCL11; 100 µM; relative to: untreated).
PANC-1; DNA microarray, refers to: GINS1; 25 µM; relative to: untreated cells — “log2 fold change”: 0.476.
The “log2 fold change” was 0.739 (PANC-1; DNA microarray, refers to: TMEM108; 100 µM; relative to: untreated cells).
The “log2 fold change” was -0.302 (SK-OV-3; microarray, refers to: PIF1; 25 µM; relative to: untreated).
It gave -0.0725 for “log2 fold change” (SK-OV-3; DNA microarray, refers to: MCM10; 25 µM; relative to: untreated cells).
The “log2 fold change” was 7.82 (SK-OV-3; microarray, refers to: CCL11; 25 µM; relative to: untreated).
For PANC-1; microarray, refers to: RFC3; 25 µM; relative to: untreated: “log2 fold change” read 0.763.
PANC-1; DNA microarray, refers to: C6; 25 µM; relative to: untreated cells — “log2 fold change”: 7.68.
For PANC-1; DNA microarray, refers to: UBB mRNA; 25 µM; relative to: control: “log2 fold change” read -0.727.
For PANC-1; DNA microarray, refers to: CCL1 mRNA (probe A_23_P49759); 100 µM; relative to: control: “log2 fold change” read 2.83.
For A549; DNA microarray, refers to: ACTA2; 100 µM; relative to: untreated cells: “log2 fold change” read 0.566.
The “log2 fold change” was 5.71 (SK-OV-3; DNA microarray, refers to: ADAMTS8; 100 µM; relative to: untreated).
For A549; DNA microarray, refers to: MCM7; 25 µM; relative to: untreated cells: “log2 fold change” read 0.192.

Block 2 — observed: thermal unfolding; technique: differential scanning fluorimetry; concentration: 5.5 µM; reading: higher = more unfolded
Compound: C[C@@H]1CN(c2ccc(-c3cc(C(=O)NCCOCCOCCOCCOCCNC(=O)Cn4cc(-c5[nH]cc(C(=O)N[C@@H](CC(N)=O)c6ccc(F)c(Cl)c6)c5-c5ccc(Cl)cc5F)cn4)ccc3F)cc2NC(=O)c2c[nH]c(=O)cc2C(F)(F)F)C[C@H](C)N1C
WDR5: WD repeat-containing protein 5 (WDR5, Homo sapiens, UniProt P61964)
DCAF1: DDB1- and CUL4-associated factor 1 (DCAF1, Homo sapiens, UniProt Q9Y4B6)
Sequence of UniProt Q9Y4B6 (whole entry, looked up): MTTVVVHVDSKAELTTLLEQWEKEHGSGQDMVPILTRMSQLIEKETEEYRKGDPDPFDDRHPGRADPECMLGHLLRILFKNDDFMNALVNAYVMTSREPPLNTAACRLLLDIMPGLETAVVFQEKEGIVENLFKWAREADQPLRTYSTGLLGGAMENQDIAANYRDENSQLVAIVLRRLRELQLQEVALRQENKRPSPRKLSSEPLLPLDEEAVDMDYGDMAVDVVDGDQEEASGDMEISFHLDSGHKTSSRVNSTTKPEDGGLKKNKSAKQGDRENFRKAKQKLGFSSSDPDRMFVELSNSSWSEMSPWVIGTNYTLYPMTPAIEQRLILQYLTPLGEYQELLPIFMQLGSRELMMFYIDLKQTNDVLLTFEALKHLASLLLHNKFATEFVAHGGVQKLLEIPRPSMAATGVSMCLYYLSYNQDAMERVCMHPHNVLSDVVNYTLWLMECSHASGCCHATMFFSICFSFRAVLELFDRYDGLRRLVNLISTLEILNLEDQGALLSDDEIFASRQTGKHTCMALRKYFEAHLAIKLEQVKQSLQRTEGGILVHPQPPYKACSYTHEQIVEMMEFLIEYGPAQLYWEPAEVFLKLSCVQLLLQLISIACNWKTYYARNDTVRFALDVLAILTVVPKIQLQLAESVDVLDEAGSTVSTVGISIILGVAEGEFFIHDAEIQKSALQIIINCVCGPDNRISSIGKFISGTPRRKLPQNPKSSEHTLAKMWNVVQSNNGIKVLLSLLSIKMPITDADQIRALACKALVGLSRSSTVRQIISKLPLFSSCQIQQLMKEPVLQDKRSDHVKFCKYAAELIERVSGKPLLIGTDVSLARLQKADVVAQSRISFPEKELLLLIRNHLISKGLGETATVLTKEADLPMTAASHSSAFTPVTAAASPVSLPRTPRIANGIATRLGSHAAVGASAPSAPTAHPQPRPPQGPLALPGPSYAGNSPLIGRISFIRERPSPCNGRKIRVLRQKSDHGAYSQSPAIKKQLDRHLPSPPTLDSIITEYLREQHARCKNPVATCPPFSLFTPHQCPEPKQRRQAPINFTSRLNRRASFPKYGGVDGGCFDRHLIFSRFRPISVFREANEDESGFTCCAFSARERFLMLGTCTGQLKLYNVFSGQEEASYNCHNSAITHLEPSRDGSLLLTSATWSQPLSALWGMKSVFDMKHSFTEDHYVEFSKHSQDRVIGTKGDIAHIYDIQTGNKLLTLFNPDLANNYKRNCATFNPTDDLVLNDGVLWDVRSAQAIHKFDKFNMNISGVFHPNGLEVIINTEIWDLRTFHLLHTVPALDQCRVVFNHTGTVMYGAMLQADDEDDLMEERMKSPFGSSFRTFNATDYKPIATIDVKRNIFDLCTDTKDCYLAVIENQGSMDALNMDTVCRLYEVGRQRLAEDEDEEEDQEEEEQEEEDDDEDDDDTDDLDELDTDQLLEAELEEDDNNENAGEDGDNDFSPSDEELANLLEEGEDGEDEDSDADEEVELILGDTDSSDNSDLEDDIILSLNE
It gave 8370 a.u. for “SYPRO Orange fluorescence” (WDR5; 73.01 °C).
It gave 14500 a.u. for “SYPRO Orange fluorescence” (WDR5; 44 °C).
It gave 14300 a.u. for “SYPRO Orange fluorescence” (WDR5; 45.8 °C).
It gave 15600 a.u. for “SYPRO Orange fluorescence” (DCAF1; 51.8 °C).
WDR5; 28.2 °C — “SYPRO Orange fluorescence”: 14900 a.u.
It gave 31400 a.u. for “SYPRO Orange fluorescence” (DCAF1; 58.61 °C).
For WDR5; 39 °C: “SYPRO Orange fluorescence” read 14400 a.u.
The “SYPRO Orange fluorescence” was 14200 a.u. (WDR5; 42.4 °C).
The “SYPRO Orange fluorescence” was 45200 a.u. (DCAF1; 78.81 °C).
For WDR5; 69.01 °C: “SYPRO Orange fluorescence” read 6730 a.u.
WDR5; 87.81 °C — “SYPRO Orange fluorescence”: 43500 a.u.

Block 3 — concentration: 1 µM
Structure (SMILES): CC[C@@]1(c2cccc(C(F)(F)F)c2)C2=C(Nc3n[nH]cc31)[C@H](F)C(C)(C)CC2=O (single isomer, unassigned)
For FLT3 ITD, human; KINOMEscan: remaining binding read 100%.
It gave 79% for remaining binding (HIPK2 (Homo sapiens, UniProt Q9H2X6); binding, competition with immobilised ligand).
PTK6 (Homo sapiens, UniProt Q13882); kinase binding, KINOMEscan; relative to: DMSO control — remaining binding: 85%.
CDK17 (Homo sapiens, UniProt Q00537); binding, competition with immobilised ligand — remaining binding: 72%.
NEK1 (Homo sapiens, UniProt Q96PY6); kinase binding, KINOMEscan; relative to: DMSO control — remaining binding: 89%.
MERTK (Homo sapiens, UniProt Q12866); kinase binding, KINOMEscan; relative to: DMSO control — remaining binding: 100%.
The remaining binding was 100% (Mast/stem cell growth factor receptor Kit, autoinhibited (KIT, Homo sapiens, UniProt P10721); kinase binding, KINOMEscan; relative to: DMSO control).
It gave 100% for remaining binding (LYN (Homo sapiens, UniProt P07948); kinase binding, KINOMEscan; relative to: DMSO control).
For MARK3 (Homo sapiens, UniProt P27448); kinase binding, KINOMEscan; relative to: DMSO control: remaining binding read 91%.
PRKACA (Homo sapiens, UniProt P17612); kinase binding, KINOMEscan; relative to: DMSO control — remaining binding: 100%.
It gave 65% for remaining binding (GRK3 (Homo sapiens, UniProt P35626); kinase binding, KINOMEscan; relative to: DMSO control).
The remaining binding was 97% (TNK2 (Homo sapiens, UniProt Q07912); binding, competition with immobilised ligand).
ERN1 (Homo sapiens, UniProt O75460); binding, competition with immobilised ligand — remaining binding: 100%.
It gave 100% for remaining binding (BMX (Homo sapiens, UniProt P51813); binding, competition with immobilised ligand).
For CDK3 (Homo sapiens, UniProt Q00526); kinase binding, KINOMEscan; relative to: DMSO control: remaining binding read 97%.
For SBK3 (Homo sapiens, UniProt P0C264); binding, competition with immobilised ligand: remaining binding read 100%.
It gave 100% for remaining binding (Tyrosine-protein kinase ABL1, phosphorylated (ABL1, Homo sapiens, UniProt P00519, T315I); kinase binding, KINOMEscan; relative to: DMSO control).
The remaining binding was 100% (FLT3 (Homo sapiens, UniProt P36888, D835Y); kinase binding, KINOMEscan; relative to: DMSO control).
It gave 92% for remaining binding (FYN (Homo sapiens, UniProt P06241); kinase binding, KINOMEscan; relative to: DMSO control).

Block 4 — cell line: U-87 MG; concentration: concentration not given; relative to: DMSO
Compound: CCN1/C(=C/C=C2\CCCC(/C=C/C3=[N+](CC)c4ccccc4C3(C)C)=C2NCCCCCCCCN2CCC(Nc3nc4ccccc4n3Cc3ccc(F)cc3)CC2)C(C)(C)c2ccccc21
For refers to: WNT5B mRNA: “log2 fold change” read -2.44.
For refers to: GOLGA6L9 mRNA: “log2 fold change” read 1.24.
It gave 1.45 for “log2 fold change” (refers to: LOX mRNA).
It gave -1.49 for “log2 fold change” (refers to: SGO2 mRNA).
The “log2 fold change” was 2.14 (refers to: TMEM71 mRNA).
refers to: UBE2B mRNA — “log2 fold change”: 0.875.
refers to: SESN2 mRNA — “log2 fold change”: 1.6.
The “log2 fold change” was -1.3 (refers to: ACSF2 mRNA).
The “log2 fold change” was 1.09 (refers to: CNNM4 mRNA).
refers to: NAPEPLD mRNA — “log2 fold change”: -0.838.
refers to: SLC9A7 mRNA — “log2 fold change”: -1.22.
It gave 1.98 for “log2 fold change” (refers to: GPR35 mRNA).
The “log2 fold change” was -2.54 (refers to: SPTLC3 mRNA).

Excerpt of the above (block 1):
The “log2 fold change” was 7.82 (SK-OV-3; microarray, refers to: CCL11; 25 µM; relative to: untreated).
PANC-1; DNA microarray, refers to: GINS1; 25 µM; relative to: untreated cells — “log2 fold change”: 0.476.
For SK-OV-3; microarray, refers to: PIF1; 100 µM; relative to: untreated: “log2 fold change” read -0.0328.
The “log2 fold change” was 5.71 (SK-OV-3; DNA microarray, refers to: ADAMTS8; 100 µM; relative to: untreated).
For A549; DNA microarray, refers to: MCM7; 25 µM; relative to: untreated cells: “log2 fold change” read 0.192.
